Measurements collected from several papers.
Compare with care: the assays were run in different laboratories. “And” joins repeats or separate records; there may be more than shown. ± gives the spread as reported.
BRD9: Bromodomain-containing protein 9 (BRD9, Homo sapiens, UniProt Q9H8M2)
Chain of UniProt Q9H8M2 (whole entry, looked up): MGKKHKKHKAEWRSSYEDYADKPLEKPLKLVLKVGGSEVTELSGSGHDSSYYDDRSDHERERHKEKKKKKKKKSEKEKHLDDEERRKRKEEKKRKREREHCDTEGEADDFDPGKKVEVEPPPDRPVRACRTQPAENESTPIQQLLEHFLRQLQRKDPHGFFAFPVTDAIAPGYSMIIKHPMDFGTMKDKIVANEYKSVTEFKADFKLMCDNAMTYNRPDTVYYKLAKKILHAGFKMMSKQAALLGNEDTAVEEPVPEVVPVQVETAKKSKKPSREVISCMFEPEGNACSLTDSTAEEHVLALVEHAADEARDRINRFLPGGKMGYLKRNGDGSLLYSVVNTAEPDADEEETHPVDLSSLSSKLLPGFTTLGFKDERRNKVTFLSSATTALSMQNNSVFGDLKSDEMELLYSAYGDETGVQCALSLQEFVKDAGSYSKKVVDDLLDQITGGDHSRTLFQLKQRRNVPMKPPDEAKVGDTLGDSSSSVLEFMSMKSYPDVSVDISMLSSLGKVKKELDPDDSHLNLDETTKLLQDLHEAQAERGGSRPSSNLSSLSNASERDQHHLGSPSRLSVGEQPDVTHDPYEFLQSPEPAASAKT
Protein AF-9 with DOT1L: Protein AF-9, with DOT1L (Homo sapiens, UniProt P42568)
Chain of UniProt P42568 (whole entry, looked up): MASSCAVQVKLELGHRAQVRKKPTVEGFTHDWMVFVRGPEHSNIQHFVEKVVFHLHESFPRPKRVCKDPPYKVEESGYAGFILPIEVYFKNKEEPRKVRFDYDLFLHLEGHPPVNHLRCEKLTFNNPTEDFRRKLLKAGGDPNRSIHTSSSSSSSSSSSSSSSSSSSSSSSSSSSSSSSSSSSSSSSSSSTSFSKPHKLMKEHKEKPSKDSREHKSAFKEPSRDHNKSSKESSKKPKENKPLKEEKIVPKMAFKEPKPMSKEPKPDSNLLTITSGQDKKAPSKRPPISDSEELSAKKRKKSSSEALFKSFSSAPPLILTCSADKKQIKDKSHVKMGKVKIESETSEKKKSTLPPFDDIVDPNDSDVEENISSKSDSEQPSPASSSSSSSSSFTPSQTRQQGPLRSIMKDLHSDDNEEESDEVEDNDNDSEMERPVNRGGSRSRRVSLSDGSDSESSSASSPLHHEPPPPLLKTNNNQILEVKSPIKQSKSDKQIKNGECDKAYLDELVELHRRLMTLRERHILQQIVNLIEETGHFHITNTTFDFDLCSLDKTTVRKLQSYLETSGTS
IDE: Insulin-degrading enzyme (IDE, Homo sapiens, UniProt P14735)
CD274: Programmed cell death 1 ligand 1 (CD274, Homo sapiens, UniProt Q9NZQ7)
Chain of UniProt Q9NZQ7 (whole entry, looked up): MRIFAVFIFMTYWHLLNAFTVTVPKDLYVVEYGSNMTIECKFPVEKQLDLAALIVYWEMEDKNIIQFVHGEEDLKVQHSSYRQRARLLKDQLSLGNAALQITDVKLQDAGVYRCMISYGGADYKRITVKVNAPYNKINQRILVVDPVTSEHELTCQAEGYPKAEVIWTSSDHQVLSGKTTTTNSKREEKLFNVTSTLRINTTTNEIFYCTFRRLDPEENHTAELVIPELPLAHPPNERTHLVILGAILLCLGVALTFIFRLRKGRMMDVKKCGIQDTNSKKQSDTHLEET
AXL: Tyrosine-protein kinase receptor UFO (AXL, Homo sapiens, UniProt P30530)
Chain of UniProt P30530 (whole entry, looked up): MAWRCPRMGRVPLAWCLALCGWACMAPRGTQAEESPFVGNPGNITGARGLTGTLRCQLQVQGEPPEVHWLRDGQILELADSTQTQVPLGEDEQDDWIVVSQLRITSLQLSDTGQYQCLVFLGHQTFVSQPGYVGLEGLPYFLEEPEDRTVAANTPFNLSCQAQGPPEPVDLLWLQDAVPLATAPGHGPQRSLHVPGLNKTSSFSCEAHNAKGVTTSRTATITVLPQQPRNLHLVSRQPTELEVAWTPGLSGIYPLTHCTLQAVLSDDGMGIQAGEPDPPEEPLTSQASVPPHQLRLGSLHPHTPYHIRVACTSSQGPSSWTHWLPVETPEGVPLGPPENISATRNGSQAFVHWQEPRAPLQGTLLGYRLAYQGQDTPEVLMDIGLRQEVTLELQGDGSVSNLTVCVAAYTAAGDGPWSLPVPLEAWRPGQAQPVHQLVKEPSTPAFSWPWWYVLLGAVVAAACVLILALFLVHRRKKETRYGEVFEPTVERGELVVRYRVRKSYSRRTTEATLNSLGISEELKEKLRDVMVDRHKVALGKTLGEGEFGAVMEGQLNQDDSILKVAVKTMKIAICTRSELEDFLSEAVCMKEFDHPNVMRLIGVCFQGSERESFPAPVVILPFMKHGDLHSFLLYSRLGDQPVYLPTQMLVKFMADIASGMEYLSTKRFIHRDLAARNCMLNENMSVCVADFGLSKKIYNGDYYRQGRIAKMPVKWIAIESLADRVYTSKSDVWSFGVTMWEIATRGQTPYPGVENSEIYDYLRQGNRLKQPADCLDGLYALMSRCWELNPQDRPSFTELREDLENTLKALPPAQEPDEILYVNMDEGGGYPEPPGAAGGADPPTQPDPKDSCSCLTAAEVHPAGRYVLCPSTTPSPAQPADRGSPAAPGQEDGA
Chain of UniProt P48048 (whole entry, looked up): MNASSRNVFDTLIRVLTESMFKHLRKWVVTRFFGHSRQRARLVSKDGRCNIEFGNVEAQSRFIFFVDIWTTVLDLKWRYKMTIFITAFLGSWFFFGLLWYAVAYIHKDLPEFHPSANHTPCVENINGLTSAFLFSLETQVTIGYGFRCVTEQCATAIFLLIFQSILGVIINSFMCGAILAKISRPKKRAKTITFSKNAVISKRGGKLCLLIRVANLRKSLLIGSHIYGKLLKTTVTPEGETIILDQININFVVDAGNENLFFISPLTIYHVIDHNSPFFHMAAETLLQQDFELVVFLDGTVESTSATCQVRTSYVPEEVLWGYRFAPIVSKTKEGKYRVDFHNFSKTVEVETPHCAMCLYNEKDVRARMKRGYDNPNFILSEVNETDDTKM
Chain of UniProt Q9NTG7 (whole entry, looked up): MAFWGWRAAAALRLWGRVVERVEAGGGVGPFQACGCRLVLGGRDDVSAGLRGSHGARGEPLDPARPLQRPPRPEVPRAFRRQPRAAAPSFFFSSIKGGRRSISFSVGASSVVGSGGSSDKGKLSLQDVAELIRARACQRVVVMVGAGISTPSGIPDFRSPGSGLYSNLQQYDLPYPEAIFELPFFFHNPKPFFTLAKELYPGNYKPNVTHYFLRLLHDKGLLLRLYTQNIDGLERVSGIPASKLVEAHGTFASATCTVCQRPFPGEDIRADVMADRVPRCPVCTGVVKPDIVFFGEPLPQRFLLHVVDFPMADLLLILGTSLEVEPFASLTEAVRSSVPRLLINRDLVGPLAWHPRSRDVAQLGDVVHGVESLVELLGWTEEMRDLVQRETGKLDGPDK
Chain of UniProt P35368 (whole entry, looked up): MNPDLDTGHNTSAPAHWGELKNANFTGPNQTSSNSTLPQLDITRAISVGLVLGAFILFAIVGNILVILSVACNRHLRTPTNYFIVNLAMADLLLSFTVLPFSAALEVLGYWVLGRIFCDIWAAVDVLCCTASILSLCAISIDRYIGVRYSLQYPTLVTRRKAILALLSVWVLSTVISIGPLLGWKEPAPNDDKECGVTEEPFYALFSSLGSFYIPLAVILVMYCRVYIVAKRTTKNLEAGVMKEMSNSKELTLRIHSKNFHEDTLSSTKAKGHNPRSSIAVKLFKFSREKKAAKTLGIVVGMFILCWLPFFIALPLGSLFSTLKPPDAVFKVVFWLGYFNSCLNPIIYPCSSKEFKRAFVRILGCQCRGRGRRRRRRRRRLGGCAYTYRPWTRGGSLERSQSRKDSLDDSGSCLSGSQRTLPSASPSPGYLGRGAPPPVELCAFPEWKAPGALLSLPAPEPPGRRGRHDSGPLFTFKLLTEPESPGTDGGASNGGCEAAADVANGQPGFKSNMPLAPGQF
Chain of UniProt P07949 (whole entry, looked up): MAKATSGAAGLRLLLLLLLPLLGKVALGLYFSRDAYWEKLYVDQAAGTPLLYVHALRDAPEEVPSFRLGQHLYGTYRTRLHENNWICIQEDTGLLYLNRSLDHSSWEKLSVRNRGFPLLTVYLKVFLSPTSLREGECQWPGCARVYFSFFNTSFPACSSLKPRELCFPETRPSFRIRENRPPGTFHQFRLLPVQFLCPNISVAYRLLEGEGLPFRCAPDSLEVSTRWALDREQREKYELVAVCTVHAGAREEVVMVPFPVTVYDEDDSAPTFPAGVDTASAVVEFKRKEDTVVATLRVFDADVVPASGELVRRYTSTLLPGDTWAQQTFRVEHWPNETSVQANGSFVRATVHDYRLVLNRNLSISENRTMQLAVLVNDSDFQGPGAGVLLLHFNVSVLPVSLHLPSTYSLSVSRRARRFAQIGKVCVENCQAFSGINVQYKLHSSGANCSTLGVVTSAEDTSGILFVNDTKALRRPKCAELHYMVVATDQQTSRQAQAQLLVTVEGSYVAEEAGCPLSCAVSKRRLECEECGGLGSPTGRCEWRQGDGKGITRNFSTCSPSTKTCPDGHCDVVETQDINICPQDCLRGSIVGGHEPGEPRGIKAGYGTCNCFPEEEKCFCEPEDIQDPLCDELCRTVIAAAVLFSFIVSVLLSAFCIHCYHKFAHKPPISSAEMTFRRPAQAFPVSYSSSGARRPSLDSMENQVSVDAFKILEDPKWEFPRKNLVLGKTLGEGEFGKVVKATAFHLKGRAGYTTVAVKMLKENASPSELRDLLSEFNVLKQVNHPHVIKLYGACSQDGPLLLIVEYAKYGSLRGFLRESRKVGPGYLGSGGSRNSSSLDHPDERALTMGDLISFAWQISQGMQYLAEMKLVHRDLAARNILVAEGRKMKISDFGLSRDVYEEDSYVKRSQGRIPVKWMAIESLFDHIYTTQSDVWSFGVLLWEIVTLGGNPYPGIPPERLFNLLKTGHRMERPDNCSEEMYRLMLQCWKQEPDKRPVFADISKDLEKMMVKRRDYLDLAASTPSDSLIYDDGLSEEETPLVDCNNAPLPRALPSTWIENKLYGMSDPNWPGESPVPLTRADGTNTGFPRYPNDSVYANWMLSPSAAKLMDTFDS

The inhibition of `Cc1ccc(CNC(=O)[C@H](CCc2ccccc2)NC(=O)[C@H](CCc2ccccc2)NC(=O)[C@H](CCc2ccccc2)NC(=O)c2cnc(C)cn2)cc1` is reported as 22% (Prothrombin (F2, Homo sapiens, UniProt P00734); enzyme activity; 100 µM).
`C=CC(=O)Nc1cc(Nc2nccc(Nc3cc(Cl)c(F)cc3C(C)(C)O)n2)c(OC)cc1N1CC[C@@H](N(C)C)C1` has an inhibition of 9% (CaMKII, human; kinase activity; 1 µM).
With `COc1cc(-c2cc(C(C)=O)n3ccccc23)cc(OC)c1CN(C)C` the inhibition was 95.7% (BRD9; AlphaScreen; 1 µM).
The inhibition of `N#CCc1ccc(-c2ccc3ncc(OCC4CCNCC4)nc3c2)cc1` is reported as 9 to 18% (Protein AF-9 with DOT1L; DOT1L binding, AlphaLISA; 10 µM).
`Cc1cc(=O)oc2cc(NC(=O)CCCCCCC(=O)NO)ccc12` has a viability of 76.8% (HBL-1; 0.5 µM, 120 h).
`CCCCCCCCNC(=S)NCCCC[C@H](NS(C)(=O)=O)C(=O)N[C@H](C)C(=O)N[C@@H](CCCNC(=N)N)C(N)=O` gave an inhibition of under 5% (NAD-dependent protein deacetylase sirtuin-3, mitochondrial (SIRT3, Homo sapiens, UniProt Q9NTG7); enzyme activity, inhibitor; 10 µM).
For `Cc1ccc(NC(=O)CCCCCC(=O)Nc2ccccc2N)cc1`, the viability was 138% (HBL-1; 0.1 µM, 120 h).
For `CC(C)c1noc2ncc(C(=O)c3ccccc3O)cc12`, the inhibition was 4.76% (ATP-sensitive inward rectifier potassium channel 1 (Homo sapiens, UniProt P48048); ion current, whole-cell patch-clamp; 10 µM, hKir1.1).
For `O=C(CC1CC1)N1CC(=O)N2[C@H](C1)[C@H](c1ccc(C#Cc3ccccc3)cc1)[C@@H]2CO`, the EC50 was 7.1 µM (IDE; enzyme activity, inhibitor, fluorogenic kinetic; together with: Mca-RPPGFSAFK(Dnp)-OH substrate).
With `[2H]c1cc(C)c(NC(=O)c2cnc(Nc3cc(N4CCCCC4)nc(C)n3)s2)c(Cl)c1` the inhibition was under 30% (Proto-oncogene tyrosine-protein kinase receptor Ret (RET, Homo sapiens, UniProt P07949); 0.01 µM).
For `Cc1c(COc2ccc(CN3CCCCC3C(=O)NCCCCCCNC(=O)CN(C)CCCC34CCC(c5ccccc53)c3ccccc34)cc2Br)cccc1-c1ccccc1` (stereo not drawn), the inhibition was 14.1 ± 1.1% (CD274; binding, inhibitor, HTRF; 1 µM).
`CC[C@@H]1[C@H](F)C(=O)N[C@@H]1COc1nccc2cc(C(N)=O)c(OC)cc12` has an inhibition of -4.1% (AXL; ATP-site probe binding, inhibitor, ActivX ATP probe profiling; THP-1 cell lysate; 0.04 mM, activation loop site).
`O=S(=O)(c1ccccc1C(F)(F)F)N1C/C=C\CN2[C@H](CO)[C@@H](c3ccc(-c4cccc(Cl)c4Cl)cc3)[C@@H]2C1` has an EC50 of 0.009 µM (IDE; enzyme activity, inhibitor, fluorescence kinetic; together with: Mca-RPPGFSAFK(Dnp)-OH substrate).
`COc1ccc(C(=O)/C=C/c2cccc(-c3cccc(-c4ccc(CNC(CO)CO)c(OC)n4)c3C)c2)cc1` has an inhibition of 10.1 ± 1.1% (CD274; binding, inhibitor, HTRF; 1 µM).
With `O=C(NO)c1ccc(CN2CCCCc3ccccc32)c(F)c1` the inhibition was 5.71% (Alpha-1B adrenergic receptor (ADRA1B, Homo sapiens, UniProt P35368); radioligand binding, radioligand displacement; 10 µM, mean of replicates).
With `CCN(CC)Cc1c(OC)cc(-c2cc(C(C)=O)n3ccccc23)cc1OC` the inhibition was 95.4% (BRD9; AlphaScreen; 1 µM).
`COc1cc2nccc(Oc3ccc(NC(=O)c4cc5c(n(-c6ccccc6)c4=O)CCCC5=O)nc3)c2cc1OC` has an inhibition of 70 to 100% (AXL; plasma inhibitory activity; human patients; 3 mg/day).
The inhibition of `CC[C@H](C)[C@H](NC(=O)[C@H](CCSC)NC(=O)[C@@H](NC(=O)[C@H](Cc1c[nH]c2ccccc12)NC(=O)[C@H](Cc1c[nH]c2ccccc12)NC(=O)CNC(C)=O)C(C)C)C(=O)N[C@@H](Cc1ccccc1)C(N)=O` is reported as 92.2 ± 1% (Programmed cell death 1 ligand 1, with PD-1 (CD274, Homo sapiens, UniProt Q9NZQ7); PD-1/PD-L1 binding, ELISA; 10 µM).
`Cc1cccc(-c2nc(CN(C)C)[nH]c2-c2ccncc2)c1` has an inhibition of 3% (Casein kinase I isoform delta (CSNK1D, Homo sapiens, UniProt P48730); kinase activity; 1 µM).
For `O=C(Nc1cccc2c(=O)cc(-c3nnn[nH]3)oc12)c1ccc(OCCCCc2ccccc2)cc1`, the inhibition was 86.7% and 89.1% and 81.1% and 86.3% (Volume-regulated anion channel subunit LRRC8C, part LRRC8A IL1 chimera (LRRC8C, Homo sapiens, UniProt Q8TDW0, L136K); ion current, inhibitor, whole-cell patch clamp; HCT LRRC8-/- cells; 10 µM, -100 mV).
`c1ccc(-c2ccc(-c3ccc4ncc(OCC5CCNCC5)nc4c3)cc2)cc1` gave an inhibition of 14 to 17% (Protein AF-9 with DOT1L; DOT1L binding, AlphaLISA; 10 µM).

Some of these lines once more:
With `CCN(CC)Cc1c(OC)cc(-c2cc(C(C)=O)n3ccccc23)cc1OC` the inhibition was 95.4% (BRD9; AlphaScreen; 1 µM).
For `O=C(CC1CC1)N1CC(=O)N2[C@H](C1)[C@H](c1ccc(C#Cc3ccccc3)cc1)[C@@H]2CO`, the EC50 was 7.1 µM (IDE; enzyme activity, inhibitor, fluorogenic kinetic; together with: Mca-RPPGFSAFK(Dnp)-OH substrate).
